Results gathered from unrelated publications.
Lines come from different studies, so protocols differ. ± marks the error that the study gave.

SMILES | target or system | assay | test system | conditions | scale | quantity | result
O=[N+]([O-])c1ccc2c(c1)Cc1ccccc1-2 | Salmonella typhimurium | mini-Ames test | TA98 | 2.0 µg/well, without S9 |  | revertants per well | 308
Cc1ccc(-c2ccc3c(c2)C=C(C(=O)Nc2ccc(C[N+](C)(C)C4CCOCC4)cc2)CCC3)cc1.[Cl-] | human immunodeficiency virus 1 | viral attachment, MAGI cell | MAGI cells, Ba-L | CCR5-tropic | relative to: TC50 over IC50 | therapeutic index | > 1430
Cc1cc(Nc2ccc(S(F)(F)(F)(F)F)cc2)n2nc(C(C)(F)F)nc2n1 | Plasmodium vivax | 12-lead ECG | malaria patients | oral, 600 mg, increase above 30 ms |  | patients with QTcB increase | 0%
CN(C)c1ccc(N=NS(=O)(=O)O)cc1 | Salmonella typhimurium | mini-Ames test | TA97a | 2.0 µg/well, without S9 |  | revertants per well | 176
Cc1cc(N)c2c(OCC(C)(C)C(=O)NC(C)C)cccc2n1 | Salmonella typhimurium | reverse mutation, plate incorporation | TA100 | 10 µg/plate, without S9 |  | mean revertant colonies | 74 colonies/plate
CCOC(=O)c1cccc(Cn2ccc3ccc(-c4ccc5ccn(Cc6cccc(C(=O)O)c6)c5c4)cc32)c1 | human immunodeficiency virus 1 | viral attachment, MAGI cell | MAGI cells, Ba-L | CCR5-tropic | relative to: TC50 over IC50 | therapeutic index | 2.52
COc1c(O)c(C)cc2c1C(=O)c1c(cc(O)c(O)c1O)C2=O | HK-2 co-cultured with HepaRG | MTT |  | 266.67 µM, 48 h | relative to: untreated control | viability | 47.3 ± 12.7%
Nc1nc2c(ncn2COCCO)c(=O)[nH]1 | HSV-2 strain 333 | viral DNA replication, qPCR | Vero |  | relative to: CC50 over IC50 | therapeutic index | > 100
CC(=O)c1c(C)cc2cc(O)cc(O[C@@H]3O[C@H](CO)[C@@H](O)[C@H](O)[C@H]3O)c2c1O | HK-2 co-cultured with HepaRG | MTT |  | 266.67 µM, 48 h | relative to: untreated control | cell viability | 98.3 ± 11.8%
CC[C@H](CO)N(CCN(N=O)[C@H](CC)CO)N=O | Salmonella typhimurium | mutagenicity, Ames plate incorporation | TA100 | 500 µg/plate, without S9, methanol |  | revertant colonies per plate | 137 ± 23

A few entries again:
SMILES | target or system | assay | test system | conditions | scale | quantity | result
CCOC(=O)c1cccc(Cn2ccc3ccc(-c4ccc5ccn(Cc6cccc(C(=O)O)c6)c5c4)cc32)c1 | human immunodeficiency virus 1 | viral attachment, MAGI cell | MAGI cells, Ba-L | CCR5-tropic | relative to: TC50 over IC50 | therapeutic index | 2.52
